Published values pooled from the literature.
A part holds a random share of what one study measured.

Sample 1 — method: RNA Bind-n-Seq; form: RNA; matrix: in vitro; concentration: 365 nM; relative to: no-protein control; direction: higher = stronger binding
Target: RNA binding protein fox-1 homolog 2, RRM domain, GST-SBP tag (RBFOX2, Homo sapiens, UniProt O43251-10, residues 100-194)
Setting: natural RNA segment, single round, ends assumed
Shared flanks, not repeated: GGGAGUUCUACAGUCCGACGAUC … UGGAAUUCUCGGGUGCCAA
Target sequence (chain): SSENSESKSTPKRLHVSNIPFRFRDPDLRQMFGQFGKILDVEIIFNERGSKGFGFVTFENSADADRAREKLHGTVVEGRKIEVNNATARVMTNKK
Strand	RBNS enrichment (R)
CCUGCUUCCUGGUCCAGAGCCUCCCUCCAGUGACUGUGGAGCCUGAGAAGGCCCCCGGGCCCCAGCAUGGGCCCCGAGCCUUGGAGGAGCACUGGCAGUUGGUGGCAGUG	0.339
GAUCUGGCUUAAUAAGACUUGGUGUGGCUUAUCAGGUCACAUGUCCACCACAUCUUGAUUCUUGCAGGAGGGAAGAUUUGAUCCCUUAGAGAAAUAGCCUGUGGGACUUG	0.498
GGCAGUACACAUUGUUAACAAUCGUGUAAUUAUAAUAAAUAUGUCUACCUACUCCUUGAACCAUGAAUUUUGCACACCUGAGGUUUAAUUUUCACCUAUUGAACUUUAUU	0.379
GGCUCAACAUUCCCUUCUAAAGCUGCAAGCCAAUCACUGUAACUGUAGCUGAGGAGGAGGGGAAGCCCCUUCAAAGUGUCGAUGUGGCCUUAUAAGUGUCAUACGUCACC	0.177
UGGGAAGCAGGCCUUGCCCCUGUCCCACCACUCAUUCUCAGCUUUGAAUGGGAGGCCUUUCUAUAGUGGAGGCCUUUCCUUGAAGCCUAUGAACUGCAGGCCCCCUUUUG	0.272
CUGCCUAAGUGGCUGCUGACUGAUGUUGAGGGAACAGACAGGAGAAAUGCAUCCAUUCCUCAGGGACAGAGACACCUGCACCUCCCCCCACUGCAGGCCCCGCUUGUCCA	0.928
CAACUUUGGAAAAUAUACAUGAUGUGAAACUGGGGUGCUAUGUUAAAAAUAAAUGUAUGAUAACUAAGUGUGGGUUUUAUGGAGUCUUGGUGUCGAUAUAUUGUGGUUUG	0.744
UAUUACUAGUGGAAUCAACUGGAAACAUAUCUCAAUCCAUGGCUAGAUAAUGUGUAUCCUAAUAAAAUUGUUCUGCUUGUAUAUGAAAUAUUAAUAUCUACCAACACAUA	0.926

Sample 2 — organism: Vesicular stomatitis virus; read-out: pseudovirus infection; method: FDA-approved drug library screen; concentration: concentration not given; setting: SARS-CoV-2 spike pseudotype; relative to: vehicle
Compound	GFP-positive cells [%]
CC(=O)OCC(=O)[C@@]1(O)[C@H](C)C[C@H]2[C@@H]3CCC4=CC(=O)C=C[C@]4(C)[C@@]3(F)[C@@H](O)C[C@@]21C	81.8
NC[C@H]1CC[C@H](C(=O)O)CC1	95.7
C=C1c2c(Cl)ccc(O)c2C(=O)C2=C(O)[C@]3(O)C(=O)C(C(N)=O)=C(O)[C@@H](N(C)C)[C@@H]3[C@@H](O)[C@H]12.O=C(O)c1cc(S(=O)(=O)O)ccc1O	127
NC(=O)CCC(N)C(=O)O (racemic)	149

Sample 3 — mode: inhibitor; concentration: 20 µM
Target: Replicase polyprotein 1ab, nsp13 helicase (rep, Severe acute respiratory syndrome coronavirus 2, UniProt P0DTD1)
Structure (SMILES)	inhibition [%]
NC1CCN(c2cccc(Cl)n2)CC1	3.71
CN(C)N(C)C(=O)[C@@]1(Cc2ccccc2)CCCN(C(=O)[C@@H](Cc2c[nH]c3ccccc23)NC(=O)C(C)(C)N)C1	4.14
NC(=O)CN1CC[C@@H](NC(=O)[C@@H]2CCCN2)C1=O	5.24
CCCCCCCC/C=C\CCCCCCCC(=O)OC(CO)CO	3.91
COc1cc2c(cc1OC)[C@@]13CCN4CC5=CCO[C@H]6CC(=O)N2[C@H]1[C@H]6[C@H]5C[C@H]43	-30.8
CC(C)OC(=O)Nc1cccc(Cl)c1	5.26
CNC(=O)c1nn(C)c2c1C(C)(C)Cc1cnc(Nc3ccc(N4CCN(C)CC4)cc3)nc1-2	8.93
O=C(O)c1cc(=O)c2c(Cl)cc(Cl)cc2[nH]1	-0.34
COc1ccc(-c2cc3c(C)nc(N)nc3n([C@H]3CC[C@H](OCCO)CC3)c2=O)cn1	2.33
Cc1cc(C(N)=O)ccc1-n1c(CCC(=O)O)ccc1-c1ccc(-n2ccnc2)cc1	17
COc1ccc(CCCOC(Cn2ccnc2)c2ccc(OC)cc2)cc1 (centres unmarked)	-3.66
C/C(=N\NC(=S)NNC(=S)Nc1ccccc1Cl)c1ccccn1	3.28
O=C(O)/C=C/c1ccc(Cn2ccnc2)cc1	0.1
C/C=C/C[C@@H](C)C(=O)[C@H]1C(=O)N[C@@H](C(C)C)C(=O)N(C)CC(=O)N(C)[C@@H](CC(C)C)C(=O)N[C@@H](C(C)C)C(=O)N(C)[C@@H](CC(C)C)C(=O)N[C@@H](C)C(=O)N[C@H](C)C(=O)N(C)[C@@H](CC(C)C)C(=O)N(C)[C@@H](CC(C)C)C(=O)N(C)[C@@H](C(C)C)C(=O)N1C	4.71
OB1OCc2cc(Cl)ccc21	9.42
Cn1ccnc1S	3.13
CN(C)CCOC(c1ccc(Cl)cc1)c1ccccn1 (centres unmarked)	0.56
CN1CCN(c2cccc(Nc3nc4c(-c5ccc(S(C)(=O)=O)cc5)cccn4n3)c2)CC1	20.7
CC1=C(CC(=O)O)c2cc(F)ccc2/C1=C\c1ccc(S(C)(=O)=O)cc1	54.8
CC(C)COC(=O)c1ccc(N)cc1	8.04
COc1cc(N2CCC(N)CC2)ccc1Nc1ncc(Cl)c(-c2c[nH]c3ccccc23)n1	56.2
CC[C@@H]([C@H](C)O)n1ncn(-c2ccc(N3CCN(c4ccc(OC[C@@H]5CO[C@@](Cn6cncn6)(c6ccc(F)cc6F)C5)cc4)CC3)cc2)c1=O	10.7
S=C=Nc1cccc(NC(=S)NCCCCNC(=S)Nc2cccc(N=C=S)c2)c1	2.47
O=c1[nH]c(CCl)nc2sc3c(c12)CCCC3	14.6
CN(C)c1ccc(-c2nc3ncc(Cl)c(N4CCN(CC(=O)Nc5nccs5)CC4)c3[nH]2)cc1	7.4

Sample 4 — read-out: enzyme activity; mode: inhibitor; concentration: 20 µM; setting: primary screen
Target: Replicase polyprotein 1ab, main protease (rep, Severe acute respiratory syndrome coronavirus 2, UniProt P0DTD1)
SMILES	inhibition [%]
CN1C(=O)C(N2CCCCC2)S/C1=C\C(=O)O (centres unmarked)	76.4
CC1(C)CN2C(CS/C(=N/C3CCCCC3)NC3CCCCC3)=CSC2=N1	29.5
CN1Cc2ccccc2[C@@H]2c3cccc4[nH]cc(c34)C[C@H]21	52.7

Sample 5 — method: protein binding microarray; form: double-stranded DNA, one strand shown; matrix: in vitro; concentration: not given; relative to: not given; direction: higher = stronger binding
Target: Histone acetyltransferase KAT6A, winged helix 2, GST fusion (KAT6A, Homo sapiens, UniProt Q92794, residues 85-181)
Setting: 8-mer, flanks averaged, mean of 2 arrays, mostly near background
Target sequence (chain): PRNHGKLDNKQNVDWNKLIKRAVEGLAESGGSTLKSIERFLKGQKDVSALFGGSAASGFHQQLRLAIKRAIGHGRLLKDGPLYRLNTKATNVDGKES
Strand	E-score
CTAGTAAG	0.0234
AATTGAAC	-0.15
GTCTTTAA	0.00505
ATGATATC	-0.0654
ATAATAGG	0.0447
TACGAAGA	-0.061
ATAGTTTC	-0.0905
ACTACGAA	-0.0178

Sample 6 — method: universal PBM; form: double-stranded DNA, one strand shown; matrix: in vitro; concentration: not given; direction: higher = stronger binding
Target: Sal-like protein 4, full length isoform B (SALL4, Homo sapiens, UniProt Q9UJQ4-2, residues 1-616)
Setting: 8-mer, flanks averaged, mean of replicates
Target sequence (chain): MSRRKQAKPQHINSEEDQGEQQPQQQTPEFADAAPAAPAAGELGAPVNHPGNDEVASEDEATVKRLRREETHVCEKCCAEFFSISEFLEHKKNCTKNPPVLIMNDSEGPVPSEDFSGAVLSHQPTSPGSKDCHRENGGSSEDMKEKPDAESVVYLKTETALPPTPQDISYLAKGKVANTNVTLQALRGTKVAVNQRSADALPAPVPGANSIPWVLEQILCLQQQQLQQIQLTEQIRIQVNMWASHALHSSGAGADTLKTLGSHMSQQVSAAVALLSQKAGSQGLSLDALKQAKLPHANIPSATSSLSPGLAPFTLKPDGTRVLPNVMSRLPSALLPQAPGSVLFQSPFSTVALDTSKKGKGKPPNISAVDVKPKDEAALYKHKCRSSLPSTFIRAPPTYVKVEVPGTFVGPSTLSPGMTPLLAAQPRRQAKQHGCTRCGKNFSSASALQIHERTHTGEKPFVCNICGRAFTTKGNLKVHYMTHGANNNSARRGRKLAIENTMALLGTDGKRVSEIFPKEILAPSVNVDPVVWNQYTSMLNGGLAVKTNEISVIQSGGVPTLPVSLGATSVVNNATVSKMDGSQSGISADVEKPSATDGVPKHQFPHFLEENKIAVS
Strand	E-score
AAATTGCA	0.199
GAACCGGC	-0.416
AGTCGGGA	-0.113
ATCTAACC	0.0271
CGTTACGC	0.0817
ACAAGTGC	-0.0259
CCCAACAA	-0.064
AGAAGCTG	-0.0875

A few entries again (sample 3):
Structure (SMILES)	inhibition [%]
COc1ccc(-c2cc3c(C)nc(N)nc3n([C@H]3CC[C@H](OCCO)CC3)c2=O)cn1	2.33
COc1ccc(CCCOC(Cn2ccnc2)c2ccc(OC)cc2)cc1 (centres unmarked)	-3.66
CC(C)OC(=O)Nc1cccc(Cl)c1	5.26
S=C=Nc1cccc(NC(=S)NCCCCNC(=S)Nc2cccc(N=C=S)c2)c1	2.47
